Assay results pooled from the literature.
Each numbered part is a random draw from the data of one study; scales do not carry over between parts. Positions count from the first letter of the parent shown.

Study 1 — target: CCNE2, cyclin fold, Cln2 fusion (human); method: yeast growth competition, sequencing; sample: yeast; setting: weak parent motif; reference: not given; reading: higher = stronger binding
Starting sequence: RB1 docking peptide (human); PKPLKKLRFDIEG; partner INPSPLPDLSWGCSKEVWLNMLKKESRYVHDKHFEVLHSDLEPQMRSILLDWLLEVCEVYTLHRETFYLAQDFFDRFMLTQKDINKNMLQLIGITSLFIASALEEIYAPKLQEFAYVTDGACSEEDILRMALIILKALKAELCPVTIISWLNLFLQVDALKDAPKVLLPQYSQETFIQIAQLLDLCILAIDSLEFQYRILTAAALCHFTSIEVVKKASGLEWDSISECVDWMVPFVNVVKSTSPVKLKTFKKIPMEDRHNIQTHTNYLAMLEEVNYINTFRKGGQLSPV
Variant | normalised enrichment score
PKPLKKLYFDIEG [R8Y] | 0.85
PKWLKKLRFDIEG [P3W] | 1.37
PKPLKKLRFYIEG [D10Y] | 1.62
PKELKKLRFDIEG [P3E] | 1.15
PKPYKKLRFDIEG [L4Y] | 0.934
PKPLFKLRFDIEG [K5F] | -0.321
PKPLKKLRPDIEG [F9P] | -0.129

Study 2 — method: RNA Bind-n-Seq; molecule type: RNA; sample: in vitro; concentration: 200 nM; setting: whole 134-nt RNA, ends assumed; with: 150 mM KCl; reference: input library; reading: higher = stronger binding
Target: Fragile X messenger ribonucleoprotein 1, C-terminal low-complexity region (Fmr1, Mus musculus, UniProt P35922)
Constant ends, left off below: GGGAGUUCUACAGUCCGACGAUC … UGGAAUUCUCGGGUGUCAAGG
Strand | log2 enrichment
CUGUGCUACACAUCGUAUGUACCGAAUCGGGUUUUUUUGGGUUUUUUUGGGGUUUUUUUGGAAAGUAUUAUGUUACGCCGUUCGGAUCUG | -0.607
AAGUCCUGUGCUACACAUCGUAUGUACCGAAUCGGGGUUUGGGGUUUGGGGAGGGGAAAGUAUUAUGUUACGCCGUUCGGAUCUGCACUU | 1.2
UGGGAGGUGGAUUUUGUUUAUUUUUUUAGCUCAUUUUCAGGGGUGGGAAUUUUUUUUUAAUAUGUGUCAUGAAUAAAGUUGUUUUUGAAA | 0.107
ACCAUGCAGGUGGGCAUCUUUGGGAAGUGGGGCAAGGGGGGGAUAGGGAGGGGGGUAACACUUUGGGAACAGGUGGUCCCAGGUCGUUCC | 0.615
GUCCUGUGCUACACAUCGUAUGUACCGAAUCGGGUUUUUGGGUUUUUGGGGUUUUUGGAAAGUAUUAUGUUACGCCGUUCGGAUCUGCAC | 0.0244
CACAGACAACACGCACCCACACAGACACAGAGGGAGGGGGUUGGGAUGGGGACAGGGUGCACAGCAGGGCGGGGUAGGACCCCAGCCCCU | 1.2
AGUCCUGUGCUACACAUCGUAUGUACCGAAUCGGGUUUUGGGGUUUUGGUUUUGGGGAAAGUAUUAUGUUACGCCGUUCGGAUCUGCACU | 0.321
AAGUCCUGUGCUACACAUCGUAUGUACCGAAUCGGUUUUUGGUUUUUGGAAAAAGGAAAGUAUUAUGUUACGCCGUUCGGAUCUGCACUU | -1.04
AAGUCCUGUGCUACACAUCGUAUGUACCGAAUCAAACCCAAACCCAAACCCCCAAAAAAGUAUUAUGUUACGCCGUUCGGAUCUGCACUU | -0.441
CCUGUGCUACACAUCGUAUGUACCGAAUCGGGGAAAAAAGGGGAAAAAAGGGAAAAAAGGGAAAGUAUUAUGUUACGCCGUUCGGAUCUG | -0.531

Study 3 — method: DHFR PCA, deep sequencing; sample: yeast; with: (+)-ABA 0.39 µM; reference: wild-type fitted maximum; reading: higher = stronger binding
Target: ABI1, truncated, D143A, DHFR fusion (Arabidopsis thaliana)
Setting: methotrexate growth selection, single substitutions
Starting sequence: PYL1, truncated, DHFR fusion (Arabidopsis thaliana); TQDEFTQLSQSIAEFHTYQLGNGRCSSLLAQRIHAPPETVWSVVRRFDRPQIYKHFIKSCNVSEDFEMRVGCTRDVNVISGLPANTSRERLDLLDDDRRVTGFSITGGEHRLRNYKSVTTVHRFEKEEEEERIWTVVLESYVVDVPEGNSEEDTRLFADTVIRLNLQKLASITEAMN; partner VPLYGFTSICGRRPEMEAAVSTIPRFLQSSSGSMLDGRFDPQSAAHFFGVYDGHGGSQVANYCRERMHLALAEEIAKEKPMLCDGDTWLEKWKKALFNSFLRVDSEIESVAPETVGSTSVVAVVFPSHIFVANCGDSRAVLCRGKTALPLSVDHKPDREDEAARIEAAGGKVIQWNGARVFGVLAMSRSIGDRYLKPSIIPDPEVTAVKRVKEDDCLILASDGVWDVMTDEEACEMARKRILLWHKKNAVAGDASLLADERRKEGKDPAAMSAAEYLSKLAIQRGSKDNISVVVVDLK
Variant | relative binding score [%]
T160P | -13.5
F66H | 11.4
Q51G | 5.13
L8H | 0.674
G107E | 21

Other studies, line by line
Molecule | target | assay | test system | setting | scale | measurement | value
PhoQ, residues 284 288 289 292 302 303 GANMMA | PhoP, residues 12 14 15 18 19 STWGI (Escherichia coli, UniProt P23836) | Sort-seq, item: YFP reporter | E. coli | PhoQ-PhoP variant library, with: 10 µM Mg2+ | reference: high Mg2+ state, higher = stronger signaling | fold induction | 0.615

Some of these lines once more (study 2):
Strand | log2 enrichment
AGUCCUGUGCUACACAUCGUAUGUACCGAAUCGGGUUUUGGGGUUUUGGUUUUGGGGAAAGUAUUAUGUUACGCCGUUCGGAUCUGCACU | 0.321
AAGUCCUGUGCUACACAUCGUAUGUACCGAAUCGGUUUUUGGUUUUUGGAAAAAGGAAAGUAUUAUGUUACGCCGUUCGGAUCUGCACUU | -1.04
AAGUCCUGUGCUACACAUCGUAUGUACCGAAUCAAACCCAAACCCAAACCCCCAAAAAAGUAUUAUGUUACGCCGUUCGGAUCUGCACUU | -0.441
